Assay results of several laboratories.
Compare with care: the assays were run in different laboratories. ± marks the error that the study gave.
Ephx2: Bifunctional epoxide hydrolase 2 (Ephx2, Mus musculus, UniProt P34914)
Chain of UniProt P34914 (whole entry, looked up): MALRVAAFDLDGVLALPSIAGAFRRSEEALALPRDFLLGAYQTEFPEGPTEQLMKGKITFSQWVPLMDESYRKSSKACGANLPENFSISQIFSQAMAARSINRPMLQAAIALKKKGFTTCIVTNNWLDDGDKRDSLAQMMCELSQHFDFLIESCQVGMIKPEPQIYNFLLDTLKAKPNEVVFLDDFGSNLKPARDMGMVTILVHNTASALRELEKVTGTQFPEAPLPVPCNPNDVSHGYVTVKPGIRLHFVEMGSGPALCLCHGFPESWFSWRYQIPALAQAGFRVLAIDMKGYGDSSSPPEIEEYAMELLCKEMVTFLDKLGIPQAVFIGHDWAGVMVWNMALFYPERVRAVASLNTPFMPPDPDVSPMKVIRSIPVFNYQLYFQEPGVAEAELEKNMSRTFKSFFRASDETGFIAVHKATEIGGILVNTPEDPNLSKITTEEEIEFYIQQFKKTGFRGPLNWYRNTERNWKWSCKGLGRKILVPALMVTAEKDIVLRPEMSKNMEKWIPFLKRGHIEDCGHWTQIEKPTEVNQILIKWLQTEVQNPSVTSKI
FAAH: Fatty-acid amide hydrolase 1 (FAAH, Homo sapiens, UniProt O00519)
Chain of UniProt O00519 (whole entry, looked up): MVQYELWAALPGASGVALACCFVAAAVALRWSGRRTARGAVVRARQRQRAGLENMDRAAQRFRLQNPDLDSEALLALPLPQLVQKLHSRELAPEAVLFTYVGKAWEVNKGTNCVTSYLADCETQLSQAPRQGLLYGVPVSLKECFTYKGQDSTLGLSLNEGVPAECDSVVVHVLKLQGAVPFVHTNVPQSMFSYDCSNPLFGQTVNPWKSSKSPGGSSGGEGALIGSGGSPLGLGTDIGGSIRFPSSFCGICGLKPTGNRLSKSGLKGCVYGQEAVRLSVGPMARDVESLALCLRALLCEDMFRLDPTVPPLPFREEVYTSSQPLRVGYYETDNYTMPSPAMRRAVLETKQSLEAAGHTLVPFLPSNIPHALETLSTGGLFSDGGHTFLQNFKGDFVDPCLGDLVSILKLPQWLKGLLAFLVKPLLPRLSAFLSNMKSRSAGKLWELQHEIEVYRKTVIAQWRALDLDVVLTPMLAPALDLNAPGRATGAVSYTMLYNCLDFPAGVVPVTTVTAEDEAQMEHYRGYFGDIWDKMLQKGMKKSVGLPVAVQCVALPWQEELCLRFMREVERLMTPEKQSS
EPHX2: Bifunctional epoxide hydrolase 2 (EPHX2, Homo sapiens, UniProt P34913)
Chain of UniProt P34913 (whole entry, looked up): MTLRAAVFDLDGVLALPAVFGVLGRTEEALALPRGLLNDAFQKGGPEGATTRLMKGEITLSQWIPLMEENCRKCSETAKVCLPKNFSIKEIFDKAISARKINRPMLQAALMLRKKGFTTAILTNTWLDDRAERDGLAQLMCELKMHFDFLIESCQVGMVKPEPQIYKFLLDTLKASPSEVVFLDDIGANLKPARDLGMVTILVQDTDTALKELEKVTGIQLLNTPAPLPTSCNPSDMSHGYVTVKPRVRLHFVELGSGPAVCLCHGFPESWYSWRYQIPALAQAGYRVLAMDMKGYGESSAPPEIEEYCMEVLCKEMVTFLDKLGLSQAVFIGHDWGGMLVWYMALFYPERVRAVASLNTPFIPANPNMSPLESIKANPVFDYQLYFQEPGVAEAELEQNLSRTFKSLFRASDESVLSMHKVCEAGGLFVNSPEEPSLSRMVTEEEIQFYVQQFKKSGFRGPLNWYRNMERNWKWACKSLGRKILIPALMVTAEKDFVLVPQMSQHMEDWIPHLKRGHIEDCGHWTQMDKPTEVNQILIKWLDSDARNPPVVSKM
Oprd1: Delta-type opioid receptor (Oprd1, Mus musculus, UniProt P32300)
Chain of UniProt P32300 (whole entry, looked up): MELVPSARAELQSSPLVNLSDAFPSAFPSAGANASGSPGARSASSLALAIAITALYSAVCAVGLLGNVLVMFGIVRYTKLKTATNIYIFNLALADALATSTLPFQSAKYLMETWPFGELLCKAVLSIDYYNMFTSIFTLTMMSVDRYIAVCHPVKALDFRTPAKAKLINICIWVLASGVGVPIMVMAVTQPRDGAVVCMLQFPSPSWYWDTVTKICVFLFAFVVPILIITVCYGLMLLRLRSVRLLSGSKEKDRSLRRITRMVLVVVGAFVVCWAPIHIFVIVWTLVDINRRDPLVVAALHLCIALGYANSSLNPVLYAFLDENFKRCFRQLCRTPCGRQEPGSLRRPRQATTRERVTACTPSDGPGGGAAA
Chain of UniProt O42275 (whole entry, looked up): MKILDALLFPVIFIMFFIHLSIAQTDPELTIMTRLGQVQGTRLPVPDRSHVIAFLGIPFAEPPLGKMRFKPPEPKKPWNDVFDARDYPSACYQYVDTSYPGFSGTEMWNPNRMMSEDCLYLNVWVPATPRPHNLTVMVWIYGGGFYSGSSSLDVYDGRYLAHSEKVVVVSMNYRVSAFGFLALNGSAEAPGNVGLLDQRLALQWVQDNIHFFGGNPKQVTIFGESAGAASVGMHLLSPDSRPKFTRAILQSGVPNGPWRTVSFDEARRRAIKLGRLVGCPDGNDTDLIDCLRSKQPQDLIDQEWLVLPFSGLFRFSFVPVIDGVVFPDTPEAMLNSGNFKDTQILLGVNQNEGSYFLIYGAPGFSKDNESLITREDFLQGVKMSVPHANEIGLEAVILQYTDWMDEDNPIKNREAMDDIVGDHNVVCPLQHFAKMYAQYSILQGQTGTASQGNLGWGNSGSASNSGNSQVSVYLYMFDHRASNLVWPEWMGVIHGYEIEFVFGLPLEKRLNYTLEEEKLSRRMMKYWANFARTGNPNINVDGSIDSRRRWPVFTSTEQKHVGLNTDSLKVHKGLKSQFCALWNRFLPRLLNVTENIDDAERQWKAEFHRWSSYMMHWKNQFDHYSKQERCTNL
Chain of UniProt P35372 (whole entry, looked up): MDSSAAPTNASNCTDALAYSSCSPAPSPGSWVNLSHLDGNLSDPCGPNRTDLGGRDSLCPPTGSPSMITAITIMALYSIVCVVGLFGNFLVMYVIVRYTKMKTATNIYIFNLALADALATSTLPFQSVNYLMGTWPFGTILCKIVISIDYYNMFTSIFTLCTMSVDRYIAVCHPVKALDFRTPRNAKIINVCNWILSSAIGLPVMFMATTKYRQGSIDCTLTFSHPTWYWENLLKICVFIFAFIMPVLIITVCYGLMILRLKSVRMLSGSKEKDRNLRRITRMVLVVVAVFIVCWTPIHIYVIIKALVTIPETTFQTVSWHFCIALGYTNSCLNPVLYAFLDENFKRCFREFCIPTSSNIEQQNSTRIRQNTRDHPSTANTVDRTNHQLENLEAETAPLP
Chain of UniProt O55242 (whole entry, looked up): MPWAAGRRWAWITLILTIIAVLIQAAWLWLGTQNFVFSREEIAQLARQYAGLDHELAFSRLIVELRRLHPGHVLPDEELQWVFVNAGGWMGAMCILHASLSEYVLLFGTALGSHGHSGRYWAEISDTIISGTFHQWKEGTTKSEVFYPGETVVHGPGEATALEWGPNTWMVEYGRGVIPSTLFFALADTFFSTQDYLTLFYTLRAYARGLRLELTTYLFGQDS

CN1CC[C@]23c4c5ccc(O)c4O[C@H]2[C@@H](OS(=O)(=O)O)C=C[C@H]3[C@H]1C5
IC50 (OPRM1 (Homo sapiens, UniProt P35372)): 109 nM

O=C(Nc1ccc(-c2cnc3ccccc3c2)cc1)C1CCN(CC2CCCCC2)CC1
IC50 (ache (Electrophorus electricus, UniProt O42275)): 162 nM

Cc1cc(OCc2nnc(SC3CCCC3)n2-c2cccnc2)ccc1-c1ccc(S(C)(=O)=O)cc1
GI50 (T47D): 1300 nM

O=C(Nc1ccc(F)cc1)NC1CCN(c2c(NS(=O)(=O)Cc3ccccc3)c(=O)c2=O)CC1
IC50 (Ephx2): > 50000 nM

O=C(Nc1ccc(-c2cnc3ccccc3c2)cc1)C1CCN(Cc2cccc([N+](=O)[O-])c2)CC1
IC50 (FAAH): 208 nM

Cc1ccc(S(=O)(=O)Nc2c(N3CCC(NC(=O)Nc4ccc(OC(F)(F)F)c(F)c4)CC3)c(=O)c2=O)cc1
IC50 (Ephx2): 86.8 ± 6.1 nM

CC(C)=CCN1CC[C@]2(C)c3cc(O)ccc3C[C@H]1[C@H]2C
IC50 (Sigmar1 (Mus musculus, UniProt O55242)): 2.24 ± 0.08 nM

Cc1ccccc1S(=O)(=O)Nc1c(N2CCC(NC(=O)Nc3cc(F)cc(F)c3)CC2)c(=O)c1=O
IC50 (EPHX2): 161 ± 16.7 nM

O=C(Nc1ccc(-c2cnc3ccccc3c2)cc1)C1CCN(Cc2ccccc2)CC1
IC50 (FAAH): 104 nM

Cc1ccccc1S(=O)(=O)Nc1c(N2CCC(NC(=O)Nc3ccc(F)c(C(F)(F)F)c3)CC2)c(=O)c1=O
IC50 (EPHX2): 15.6 ± 2.1 nM

Cc1ccc(C(=O)N[C@@H]2CC[C@@]3(O)[C@H]4Cc5ccc(O)c6c5[C@@]3(CCN4CC3CC3)[C@H]2O6)cc1
EC50 (Oprd1; agonist): > 10000 nM

O=C(Nc1ccc(-c2cnc3ccccc3c2)cc1)C1CCN(Cc2ccccc2[N+](=O)[O-])CC1
IC50 (EPHX2): 8.4 nM

C(#Cc1c[nH]c2nccc(-c3ccncc3)c12)c1cccnc1
Cmax (mouse C57BL/6, male; intravenous, 2 mg/kg): 3980 ± 1450 ng/mL

O=C(N[C@@H]1CC[C@@]2(O)[C@H]3Cc4ccc(O)c5c4[C@@]2(CCN3CC2CC2)[C@H]1O5)c1ccc(I)cc1
EC50 (Oprd1; agonist): > 10000 nM

A few entries again:
O=C(Nc1ccc(-c2cnc3ccccc3c2)cc1)C1CCN(CC2CCCCC2)CC1
IC50 (ache (Electrophorus electricus, UniProt O42275)): 162 nM

Cc1cc(OCc2nnc(SC3CCCC3)n2-c2cccnc2)ccc1-c1ccc(S(C)(=O)=O)cc1
GI50 (T47D): 1300 nM
